Results collected from several papers.
Numbered parts are unrelated; each lists some results of a single study. Changes are numbered by the printed parent chain.

Block 1 — method: protein binding microarray; form: double-stranded DNA, one strand shown; matrix: in vitro; tested at: not given; reference: not given; reading: higher = stronger binding
Target: Histone acetyltransferase KAT6A, winged helix 1, GST fusion (KAT6A, Homo sapiens, UniProt Q92794, residues 1-85)
Notes: 8-mer, flanks averaged, mean of 2 arrays, mostly near background
Construct (chain): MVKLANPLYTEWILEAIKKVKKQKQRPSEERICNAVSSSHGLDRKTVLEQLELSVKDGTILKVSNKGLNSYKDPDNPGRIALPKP
Sequence | E-score
AGAGCAGG | -0.148
CCCGGTCC | 0.226
CACACCAG | -0.221
AGGCCCCA | -0.00891
GTTGGACA | -0.0806
ACGTCTTG | -0.0285
ACTCAGCT | -0.101
GGGGAAAC | 0.151
AACGAGAG | -0.029
ATGGGGAA | -0.0962
CGCCCAGA | -0.0323
GTACGCGA | 0.179
ACGGCAGT | 0.27
CTGGACCC | -0.173
AGTCGTTC | -0.158
AGACGTAC | -0.0522
GTACCCTA | -0.101
AACTGCTA | -0.119
CCACGCGG | 0.327
GCCGGCCA | 0.292

Block 2 — method: RNA Bind-n-Seq; form: RNA; matrix: in vitro; tested at: 100 nM; reference: input RNA pool; reading: higher = stronger binding
Target: RING finger protein unkempt homolog, zinc fingers 1-6, SBP tag (UNK, Homo sapiens, UniProt Q9C0B0, residues 30-357)
Sequence of UniProt Q9C0B0 (30-357, looked up): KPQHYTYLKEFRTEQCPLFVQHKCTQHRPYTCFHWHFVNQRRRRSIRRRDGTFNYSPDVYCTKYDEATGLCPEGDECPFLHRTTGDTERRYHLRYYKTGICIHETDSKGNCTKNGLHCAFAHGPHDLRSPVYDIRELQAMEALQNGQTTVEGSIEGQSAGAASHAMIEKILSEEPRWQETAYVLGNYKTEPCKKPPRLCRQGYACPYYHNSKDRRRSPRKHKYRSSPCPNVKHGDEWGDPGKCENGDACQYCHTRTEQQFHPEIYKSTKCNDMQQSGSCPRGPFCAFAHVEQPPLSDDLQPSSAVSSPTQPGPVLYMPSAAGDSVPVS
Notes: RNA with constant flanks, vertebrate orthologous sites, ends assumed
Sequence | bound/input enrichment [ratio]
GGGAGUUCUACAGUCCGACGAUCUGAGGGAGAGAUUUCUGUGCUUUCUCAUAUUUAAUUUGCUGUUUUUAAGAUAUUCCAACCUAGAGUUUUUGAUGGAACUGAUAUAUUGACAGUUCUCACCGAAGUCCUUUUAUAAAGAAUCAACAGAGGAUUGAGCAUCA | 0.936
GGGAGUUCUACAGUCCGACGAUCAUCAUGGUCGCUUUUUACCACCUCAAUGAGGUAGAGUCUCCCUUGGUAUGUGGUUGUUAUAAGAGCCAGUCGUACCUGAUAAGUCUCCACAUUUCCUUUCUUUCACUCUCUUAGUCGUCUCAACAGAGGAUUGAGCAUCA | 0.953
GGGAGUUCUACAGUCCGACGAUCGUGUUUUGGUACCACUUGACGUACCGAUACUCAUCCUUUUUUCAUUAUACCAACUCUCGCUAGAAGUAGGAAUUUAAUAUUUUUAAAAAUUUUACAUUGCUGUAUAUUCAAAAUUUUACACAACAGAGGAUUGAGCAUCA | 1.46
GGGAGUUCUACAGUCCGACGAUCCUGAAAUUACUGCAAAAGAGCCAAGCAGUAGUGUUGUUUUUUUGUAAAUGUAAAAAUGAUUAGAACUAGACUGUUUCCUUCAUUUUAAAAAUAAAAAAUACCUCAGUGCUAUAUAAUGUUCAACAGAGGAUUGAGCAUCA | 0.383
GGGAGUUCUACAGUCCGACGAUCCAGCUGAUUCACUGAUUGGGAGAGCUGCACAUAUAGCUGUUCUUGACUCAGAAAUAUUUUUAGAAAAAUUCUUUCUGGUUGCUGCCCUCAAAUAUUUCCAAUAGGAUAAAACCAUUCUUACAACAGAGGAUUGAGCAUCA | 0.663
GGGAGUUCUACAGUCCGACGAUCCUACUAUAAACAACUCAGGGCAGUAUUCUCGAUAUCCUUACAGUAACCUUAAUCAGGGAUUAGUUAAUAAUACAGGGAUGAAUCAGAAUUUAGGCCUUACAAAUAACACUCCAAUGAAUCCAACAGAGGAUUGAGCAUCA | 0.878
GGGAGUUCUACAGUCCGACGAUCUUCAGGCUCAACUGACUGUUUCACAGCAUUCCUUACACAGCUAUUUAACAAGUACAGGUGGAGUUAAUUUUCAGGAUACGUCUAGGCACUCAGCAUUAUCUUGCAGCCCAGUUGAAGAUGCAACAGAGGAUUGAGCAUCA | 0.601
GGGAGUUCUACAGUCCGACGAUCUUUUAUUGAUCAGGUCUGUAAAUGUGUACUAAAAAAAUCAGAGUUUAUUUAUAAACAGAAUAGUUUAUUUAAGAAAAACUCUUUCCUCACCGACCUUGUGGUAUGCAUUAAUUCCAUUUGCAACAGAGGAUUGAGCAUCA | 0.0814
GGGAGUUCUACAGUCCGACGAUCACAUUUAUAUUGUGGCAUAUAGUCAACAUGGAAGUAGACCAGCUCUGCUGAAUGGAAAUUUAGAUUUUUUUAAUUAUGUACUGGGGACAGGUUUUUGUCGCUUUACAUUGCUUCCUAGUUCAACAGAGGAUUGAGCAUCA | 3.64
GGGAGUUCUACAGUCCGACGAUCUUCACUACCUGACCAGAGUCGAAGUGACAGAAUUUGAAGACAUAAAAUCAGGAUACAGAAUAGAUUUUGAAGCGCCUUUUGUAACUGAGUUCGGUUCUGCGGGUAGAGGUAGGUGCCUGUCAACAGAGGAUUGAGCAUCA | 0.183
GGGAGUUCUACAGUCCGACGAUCGCUUUAGAAAUGAGCAGAUAGGGCAGUUAGGUGGGUCCCCGCCUCAAGAAAAACCCUAAACCGAUUCCUUAACCAUCUGACUAGAGACUGGAGGUUAGCAUUUCCGUUUGUUUUUAUUUUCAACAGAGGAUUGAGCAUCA | 0.459

Block 3 — method: DHFR PCA, deep sequencing; matrix: yeast; added: (+)-ABA 0.032 µM; reference: wild-type fitted maximum; reading: higher = stronger binding
Target: ABI1, truncated, D143A, DHFR fusion (Arabidopsis thaliana)
Notes: methotrexate growth selection, single substitutions
Starting sequence: PYL1, truncated, DHFR fusion (Arabidopsis thaliana); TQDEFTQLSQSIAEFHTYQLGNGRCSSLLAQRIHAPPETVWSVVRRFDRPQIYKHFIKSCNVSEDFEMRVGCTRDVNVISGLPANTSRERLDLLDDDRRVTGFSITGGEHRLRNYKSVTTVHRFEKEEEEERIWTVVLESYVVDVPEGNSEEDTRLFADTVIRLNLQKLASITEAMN
Variant | relative binding score
G81H | -1.04%
C25T | 44.7%
L29C | 8.08%
R111N | 6.66%
T173A | 25.1%
P37D | 0.952%
T119D | 1.86%
F15W | 27.9%
N77H | 56.6%
P37M | -4.64%
E152W | 4.88%
D95S | -2.37%
R163K | 44.8%
Q167C | 1.53%
A84W | 102%
K54C | -2.55%
T86M | 19.5%

Block 4 — target: CCNB1, cyclin fold, Cln2 fusion (human); method: yeast growth competition, sequencing; matrix: yeast; notes: strong parent motif; reference: not given; reading: higher = stronger binding
Starting sequence: PKN2 docking peptide (human); VSAVQKLDFSDTM; partner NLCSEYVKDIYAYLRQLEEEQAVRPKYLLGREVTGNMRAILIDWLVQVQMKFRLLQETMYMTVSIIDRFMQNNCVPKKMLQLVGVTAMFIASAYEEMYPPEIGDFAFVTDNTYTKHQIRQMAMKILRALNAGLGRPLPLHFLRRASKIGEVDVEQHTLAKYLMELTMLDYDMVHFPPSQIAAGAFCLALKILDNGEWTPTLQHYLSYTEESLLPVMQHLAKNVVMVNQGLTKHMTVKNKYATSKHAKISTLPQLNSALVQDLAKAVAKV
Variant | normalised enrichment score
D8E | 1.33
V1C | 2.26
D11F | 0.83
A3G | -0.233
S2A | 1.92
D8K | 1.29
K6E | 0.274
V4C | 0.844
D8Q | 1.07
A3P | 1.48
S10T | 1.95
T12D | 2.5
S10P | 1.56
V1T | 2.07
V4Y | 0.225
L7D | -0.378
V1A | 1.76

Repeated from above (block 1):
Sequence | E-score
ATGGGGAA | -0.0962
CGCCCAGA | -0.0323
GTACGCGA | 0.179
ACGGCAGT | 0.27
CTGGACCC | -0.173
AGTCGTTC | -0.158
AGACGTAC | -0.0522
GTACCCTA | -0.101
AACTGCTA | -0.119
CCACGCGG | 0.327
